Published values pooled from the literature.
Each numbered part is a random draw from the data of one study; scales do not carry over between parts. “And” joins repeats or separate records; there may be more than shown. Changes are numbered by the printed parent chain.
Chain of UniProt Q15303 (whole entry, looked up): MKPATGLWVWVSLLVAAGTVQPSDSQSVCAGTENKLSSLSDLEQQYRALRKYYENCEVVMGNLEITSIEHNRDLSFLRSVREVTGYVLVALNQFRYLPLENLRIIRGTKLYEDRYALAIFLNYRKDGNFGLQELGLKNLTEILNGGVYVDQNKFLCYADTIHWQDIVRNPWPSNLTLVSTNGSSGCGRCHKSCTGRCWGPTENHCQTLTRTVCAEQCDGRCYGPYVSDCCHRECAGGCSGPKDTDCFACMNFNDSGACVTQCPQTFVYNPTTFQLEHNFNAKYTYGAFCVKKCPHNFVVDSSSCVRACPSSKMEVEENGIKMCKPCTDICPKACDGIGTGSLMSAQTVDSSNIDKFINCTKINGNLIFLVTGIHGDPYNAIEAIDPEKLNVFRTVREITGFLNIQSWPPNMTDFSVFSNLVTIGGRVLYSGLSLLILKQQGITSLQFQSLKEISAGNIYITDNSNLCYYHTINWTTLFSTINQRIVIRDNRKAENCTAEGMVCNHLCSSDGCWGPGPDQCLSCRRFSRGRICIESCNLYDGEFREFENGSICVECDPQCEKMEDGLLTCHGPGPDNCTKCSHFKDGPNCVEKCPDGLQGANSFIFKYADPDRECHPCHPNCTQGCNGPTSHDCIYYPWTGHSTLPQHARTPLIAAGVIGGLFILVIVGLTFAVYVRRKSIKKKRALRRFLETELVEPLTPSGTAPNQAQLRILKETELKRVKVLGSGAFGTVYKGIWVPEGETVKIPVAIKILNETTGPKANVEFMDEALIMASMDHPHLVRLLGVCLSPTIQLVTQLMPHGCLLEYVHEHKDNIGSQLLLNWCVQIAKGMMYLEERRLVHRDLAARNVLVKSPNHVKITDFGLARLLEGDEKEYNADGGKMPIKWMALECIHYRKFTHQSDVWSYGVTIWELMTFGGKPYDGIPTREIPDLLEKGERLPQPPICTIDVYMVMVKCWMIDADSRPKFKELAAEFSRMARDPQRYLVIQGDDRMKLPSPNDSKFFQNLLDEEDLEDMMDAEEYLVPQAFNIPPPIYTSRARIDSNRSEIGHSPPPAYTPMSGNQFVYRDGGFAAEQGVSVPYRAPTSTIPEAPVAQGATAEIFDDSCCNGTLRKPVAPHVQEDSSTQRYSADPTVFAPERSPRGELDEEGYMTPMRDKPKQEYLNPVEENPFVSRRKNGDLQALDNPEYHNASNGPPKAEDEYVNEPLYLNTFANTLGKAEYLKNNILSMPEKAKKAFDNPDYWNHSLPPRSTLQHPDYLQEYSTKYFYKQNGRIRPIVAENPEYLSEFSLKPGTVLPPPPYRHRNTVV
Chain of UniProt P42336 (whole entry, looked up): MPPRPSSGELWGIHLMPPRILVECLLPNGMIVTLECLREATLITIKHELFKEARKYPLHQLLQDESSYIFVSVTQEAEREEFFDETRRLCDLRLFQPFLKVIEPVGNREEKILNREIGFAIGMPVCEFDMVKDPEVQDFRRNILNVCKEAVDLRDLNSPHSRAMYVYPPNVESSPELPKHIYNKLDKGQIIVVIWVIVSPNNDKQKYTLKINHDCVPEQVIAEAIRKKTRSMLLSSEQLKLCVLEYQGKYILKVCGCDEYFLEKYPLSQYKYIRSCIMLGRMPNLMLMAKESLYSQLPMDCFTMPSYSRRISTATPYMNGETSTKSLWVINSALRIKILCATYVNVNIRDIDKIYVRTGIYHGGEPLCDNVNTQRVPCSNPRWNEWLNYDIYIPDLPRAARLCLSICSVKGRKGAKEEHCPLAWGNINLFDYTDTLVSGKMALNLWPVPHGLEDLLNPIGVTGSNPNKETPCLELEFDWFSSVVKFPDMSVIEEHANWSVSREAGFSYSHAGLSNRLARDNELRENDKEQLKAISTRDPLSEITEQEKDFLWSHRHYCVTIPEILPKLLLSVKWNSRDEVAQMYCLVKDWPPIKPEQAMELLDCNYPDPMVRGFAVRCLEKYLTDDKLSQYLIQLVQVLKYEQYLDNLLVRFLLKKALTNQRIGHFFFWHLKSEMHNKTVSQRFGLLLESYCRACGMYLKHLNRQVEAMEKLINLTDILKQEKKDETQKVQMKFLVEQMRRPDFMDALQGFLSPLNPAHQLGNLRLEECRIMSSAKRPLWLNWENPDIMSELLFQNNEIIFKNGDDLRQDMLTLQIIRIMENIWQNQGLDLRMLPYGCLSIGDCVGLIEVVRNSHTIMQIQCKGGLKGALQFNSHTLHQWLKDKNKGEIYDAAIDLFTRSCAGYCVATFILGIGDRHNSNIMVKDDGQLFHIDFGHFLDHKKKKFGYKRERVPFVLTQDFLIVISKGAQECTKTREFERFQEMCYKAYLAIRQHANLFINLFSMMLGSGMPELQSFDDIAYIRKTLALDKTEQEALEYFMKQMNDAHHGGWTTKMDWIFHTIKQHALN
Chain of UniProt Q02156 (whole entry, looked up): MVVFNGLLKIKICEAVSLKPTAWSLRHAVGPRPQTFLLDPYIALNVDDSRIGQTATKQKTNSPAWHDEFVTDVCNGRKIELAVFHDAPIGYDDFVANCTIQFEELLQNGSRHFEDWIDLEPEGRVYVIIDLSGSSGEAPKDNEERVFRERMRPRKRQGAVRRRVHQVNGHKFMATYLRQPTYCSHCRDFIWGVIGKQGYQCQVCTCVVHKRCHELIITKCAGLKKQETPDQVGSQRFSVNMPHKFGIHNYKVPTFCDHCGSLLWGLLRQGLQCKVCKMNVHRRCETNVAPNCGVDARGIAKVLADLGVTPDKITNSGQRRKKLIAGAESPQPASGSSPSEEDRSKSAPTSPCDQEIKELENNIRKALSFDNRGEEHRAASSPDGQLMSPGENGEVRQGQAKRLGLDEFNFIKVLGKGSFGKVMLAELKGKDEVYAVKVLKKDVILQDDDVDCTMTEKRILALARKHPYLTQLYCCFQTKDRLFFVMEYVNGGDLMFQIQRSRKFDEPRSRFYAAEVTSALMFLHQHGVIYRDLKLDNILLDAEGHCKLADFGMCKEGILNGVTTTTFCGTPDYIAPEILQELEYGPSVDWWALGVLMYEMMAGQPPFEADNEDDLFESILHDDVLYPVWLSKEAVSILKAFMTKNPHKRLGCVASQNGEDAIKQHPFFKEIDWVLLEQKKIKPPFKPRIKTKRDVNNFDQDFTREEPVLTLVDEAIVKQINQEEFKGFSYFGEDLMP
Chain of UniProt Q15139 (whole entry, looked up): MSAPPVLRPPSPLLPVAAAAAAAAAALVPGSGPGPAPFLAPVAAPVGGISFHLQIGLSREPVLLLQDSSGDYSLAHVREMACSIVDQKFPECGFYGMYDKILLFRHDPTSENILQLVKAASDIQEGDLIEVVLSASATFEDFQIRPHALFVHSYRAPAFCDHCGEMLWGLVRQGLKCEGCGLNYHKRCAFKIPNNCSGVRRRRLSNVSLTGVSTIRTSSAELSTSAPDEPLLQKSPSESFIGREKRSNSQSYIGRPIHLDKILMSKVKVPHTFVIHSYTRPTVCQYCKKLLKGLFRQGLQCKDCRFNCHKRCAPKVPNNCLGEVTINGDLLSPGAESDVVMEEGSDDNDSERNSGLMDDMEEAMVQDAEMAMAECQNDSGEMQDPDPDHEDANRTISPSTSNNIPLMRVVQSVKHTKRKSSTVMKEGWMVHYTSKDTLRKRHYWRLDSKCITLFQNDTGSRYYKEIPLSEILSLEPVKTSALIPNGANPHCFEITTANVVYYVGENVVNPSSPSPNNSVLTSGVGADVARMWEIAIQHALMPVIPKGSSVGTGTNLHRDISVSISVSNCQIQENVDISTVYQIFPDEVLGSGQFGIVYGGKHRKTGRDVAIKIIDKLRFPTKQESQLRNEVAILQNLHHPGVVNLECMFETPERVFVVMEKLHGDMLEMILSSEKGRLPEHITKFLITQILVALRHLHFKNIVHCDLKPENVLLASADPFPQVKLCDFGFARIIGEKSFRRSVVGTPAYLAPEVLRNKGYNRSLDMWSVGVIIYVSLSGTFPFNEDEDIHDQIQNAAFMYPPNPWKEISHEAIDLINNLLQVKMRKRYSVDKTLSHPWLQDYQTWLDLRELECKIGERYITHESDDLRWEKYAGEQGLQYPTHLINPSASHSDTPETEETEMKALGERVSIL
Chain of UniProt Q9P0L2 (whole entry, looked up): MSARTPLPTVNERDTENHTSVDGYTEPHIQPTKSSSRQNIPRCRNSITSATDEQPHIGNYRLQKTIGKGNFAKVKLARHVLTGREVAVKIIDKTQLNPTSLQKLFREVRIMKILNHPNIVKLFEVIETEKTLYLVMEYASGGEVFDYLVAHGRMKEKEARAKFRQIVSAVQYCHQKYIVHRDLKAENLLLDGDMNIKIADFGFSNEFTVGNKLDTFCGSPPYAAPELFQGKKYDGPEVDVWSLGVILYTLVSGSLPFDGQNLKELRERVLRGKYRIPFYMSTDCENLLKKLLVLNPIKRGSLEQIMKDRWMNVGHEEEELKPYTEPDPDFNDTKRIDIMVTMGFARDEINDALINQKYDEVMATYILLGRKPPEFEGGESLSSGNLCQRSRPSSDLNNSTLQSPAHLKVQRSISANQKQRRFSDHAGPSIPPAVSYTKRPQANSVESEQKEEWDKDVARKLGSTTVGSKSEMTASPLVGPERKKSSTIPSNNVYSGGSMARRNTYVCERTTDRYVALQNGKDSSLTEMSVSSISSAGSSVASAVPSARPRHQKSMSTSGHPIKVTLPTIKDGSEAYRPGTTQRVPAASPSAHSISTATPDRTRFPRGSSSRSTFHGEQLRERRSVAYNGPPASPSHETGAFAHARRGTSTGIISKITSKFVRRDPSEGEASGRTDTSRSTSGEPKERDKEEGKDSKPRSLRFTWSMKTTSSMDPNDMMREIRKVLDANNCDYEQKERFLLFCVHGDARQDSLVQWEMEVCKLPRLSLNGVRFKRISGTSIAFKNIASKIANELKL

Series 1
Target: Prothrombin, mature alpha-thrombin (F2, Homo sapiens, UniProt P00734)
Method: aptamer microarray, sandwich
Molecule type: DNA with 2'F-ANA
Matrix: in vitro
Tested at: 200 nM
Setting: whole 15-mer aptamer, many near background
With: Cy3 exosite-II aptamer, 400 nM
Reading: higher = stronger binding
Strand: GGTTGGTGTGGTTGG
Under “mean fluorescence intensity”, `2'F-ANA at 5 6 7 8 9 10 11 12` is recorded as 50.9 a.u.
`2'F-ANA at 3 4 5 10 12 13 15` — result for “mean fluorescence intensity”: 50.6 a.u.
`2'F-ANA at 1 2 11 12 15` — result for “mean fluorescence intensity”: 326 a.u.
Under “mean fluorescence intensity”, `2'F-ANA at 5 6 8 10 13` is recorded as 44.2 a.u.
`2'F-ANA at 7 8 14 15`: “mean fluorescence intensity” 224 a.u.
`2'F-ANA at 1 4 5 8 9 12 13`: “mean fluorescence intensity” 75.3 a.u.
Under “mean fluorescence intensity”, `2'F-ANA at 3 4 9 11 13 14` is recorded as 289 a.u.
Under “mean fluorescence intensity”, `2'F-ANA at 3 6 10 11 13 14` is recorded as 322 a.u.

Series 2
Host: human
Matrix: microsomes or S9
Tested at: 2 µM
Time: 0.5 h
The remaining compound of CN(C(=O)c1ccc(C(=O)c2ccccc2)cc1)c1ccccc1 is reported as 0.514%.
Cc1cc(N2CCCC(N3CCN(C(=O)Nc4cc(C)on4)CC3)C2=O)n(C)n1 (centres unmarked) has a remaining compound of greater than 100%.
O=C(C1CCCC1)N1CCc2nc3cc(C4CCCN(C(=O)C5CCCC5)C4)nn3c(O)c2C1 (centres unmarked) has a remaining compound of 47.5%.

Series 3
Target: CCNB2, cyclin fold, Cln2 fusion (human)
Method: yeast growth competition, sequencing
Matrix: yeast
Setting: weak parent motif
Relative to: not given
Reading: higher = stronger binding
Parent: SLBP docking peptide (human); ARYKRKLLINDFG; partner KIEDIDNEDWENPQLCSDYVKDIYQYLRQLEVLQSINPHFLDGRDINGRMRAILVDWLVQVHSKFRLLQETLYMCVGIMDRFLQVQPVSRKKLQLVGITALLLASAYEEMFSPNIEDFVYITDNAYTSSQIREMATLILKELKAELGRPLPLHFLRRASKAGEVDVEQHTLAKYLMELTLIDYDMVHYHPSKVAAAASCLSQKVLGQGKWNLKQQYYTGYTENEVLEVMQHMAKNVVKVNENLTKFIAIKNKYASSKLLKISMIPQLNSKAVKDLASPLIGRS
Under “normalised enrichment score”, `I9K` is recorded as 0.993.
`I9L` — result for “normalised enrichment score”: 0.725.
`N10C` — result for “normalised enrichment score”: 0.235.
For `L7N`, “normalised enrichment score” read 0.96.
`L7R` — result for “normalised enrichment score”: 0.502.
`A1P`: “normalised enrichment score” 0.409.
`K4D` — result for “normalised enrichment score”: 0.0711.
For `K4T`, “normalised enrichment score” read 0.377.

Series 4
Compound: CNC(=O)c1ccc(Nc2ncc(C(F)(F)F)c(NCc3nccnc3N(C)S(C)(=O)=O)n2)cc1
Method: competition with immobilised ligand
The remaining binding was 27% (Non-receptor tyrosine-protein kinase TYK2, JH1 (TYK2, Homo sapiens, UniProt P29597); cell-free assay; 0.1 µM).
For Leukocyte tyrosine kinase receptor (LTK, Homo sapiens, UniProt P29376); cell-free assay; 0.1 µM: remaining binding read 89%.
Serine/threonine-protein kinase DCLK1 (DCLK1, Homo sapiens, UniProt O15075); cell-free assay; 0.1 µM — remaining binding: 99%.
Atypical kinase COQ8B, mitochondrial (COQ8B, Homo sapiens, UniProt Q96D53); cell-free assay; 0.1 µM — remaining binding: 88%.
It gave 100% for remaining binding (Serine/threonine-protein kinase MARK1 (MARK1, Homo sapiens, UniProt Q9P0L2); cell-free assay; 0.1 µM).
Protein kinase C epsilon type (PRKCE, Homo sapiens, UniProt Q02156); cell-free assay; 0.1 µM — remaining binding: 100%.
The remaining binding was 67% (Serine/threonine-protein kinase SBK1 (SBK1, Homo sapiens, UniProt Q52WX2); cell-free assay; 0.1 µM).
Serine/threonine-protein kinase D1 (PRKD1, Homo sapiens, UniProt Q15139); cell-free assay; 0.1 µM — remaining binding: 100%.
It gave 60% for remaining binding (Proto-oncogene tyrosine-protein kinase receptor Ret (RET, Homo sapiens, UniProt P07949); cell-free assay; 0.1 µM).
The remaining binding was 7.7% (Serine/threonine-protein kinase 16 (STK16, Homo sapiens, UniProt O75716); binding; 1 µM).
The remaining binding was 99% (Phosphatidylinositol 4-kinase beta (PI4KB, Homo sapiens, UniProt Q9UBF8); cell-free assay; 0.1 µM).
It gave 100% for remaining binding (Phosphatidylinositol 4,5-bisphosphate 3-kinase catalytic subunit alpha isoform (PIK3CA, Homo sapiens, UniProt P42336); cell-free assay; 0.1 µM).
Receptor tyrosine-protein kinase erbB-4 (ERBB4, Homo sapiens, UniProt Q15303); cell-free assay; 0.1 µM — remaining binding: 84%.
The remaining binding was 100% (Myosin light chain kinase (MYLK3, Homo sapiens, UniProt Q32MK0); cell-free assay; 0.1 µM).
Serine/threonine-protein kinase 36 (STK36, Homo sapiens, UniProt Q9NRP7); cell-free assay; 0.1 µM — remaining binding: 89%.

Mixed results
c1ccc(Oc2ccc(Nc3c4c(nc5ccccc35)CCC4)cc2)cc1 gave a cytotoxicity of 56% and 43% (HEK293; resazurin; 6.66 µM, 10% serum).

Excerpt of the above (series 4):
It gave 60% for remaining binding (Proto-oncogene tyrosine-protein kinase receptor Ret (RET, Homo sapiens, UniProt P07949); cell-free assay; 0.1 µM).
The remaining binding was 7.7% (Serine/threonine-protein kinase 16 (STK16, Homo sapiens, UniProt O75716); binding; 1 µM).
The remaining binding was 99% (Phosphatidylinositol 4-kinase beta (PI4KB, Homo sapiens, UniProt Q9UBF8); cell-free assay; 0.1 µM).
It gave 100% for remaining binding (Phosphatidylinositol 4,5-bisphosphate 3-kinase catalytic subunit alpha isoform (PIK3CA, Homo sapiens, UniProt P42336); cell-free assay; 0.1 µM).
